Measurements collected from several papers.
A part holds a random share of what one study measured. Positions count from the first letter of the parent shown.

Block 1 — target: CCNB3, cyclin fold, Cln2 fusion (human); method: yeast growth competition, sequencing; medium: yeast; setting: weak parent motif; reference: not given; direction: higher = stronger binding
Starting sequence: E2F1 docking peptide (human); PPVKRRLDLETDH; partner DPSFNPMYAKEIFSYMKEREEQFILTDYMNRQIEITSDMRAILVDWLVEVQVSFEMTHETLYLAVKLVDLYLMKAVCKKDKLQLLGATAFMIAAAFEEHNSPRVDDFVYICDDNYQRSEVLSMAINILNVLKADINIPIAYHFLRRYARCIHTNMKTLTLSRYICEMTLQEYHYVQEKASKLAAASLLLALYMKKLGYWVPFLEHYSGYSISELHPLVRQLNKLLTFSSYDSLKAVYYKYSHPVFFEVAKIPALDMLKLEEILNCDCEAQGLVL
Substitution	normalised enrichment score
PPVKRRLDLEQDH [T11Q]	0.282
PPVKRRLVLETDH [D8V]	0.55
PPVKRRLDLETDY [H13Y]	0.545
PPVKRGLDLETDH [R6G]	0.158
PPVKRLLDLETDH [R6L]	0.336
PPVKRRLALETDH [D8A]	0.287
LPVKRRLDLETDH [P1L]	1.08
PPVKRVLDLETDH [R6V]	0.586
PPVKRRLDLETIH [D12I]	0.132
PPVKRRLDLETFH [D12F]	0.846
PPVDRRLDLETDH [K4D]	0.297
PAVKRRLDLETDH [P2A]	0.25
KPVKRRLDLETDH [P1K]	0.569
PPVKDRLDLETDH [R5D]	0.0332
PPVKRRLDLEFDH [T11F]	0.588
PPVARRLDLETDH [K4A]	0.834
PPVKRRLDLLTDH [E10L]	0.413
PIVKRRLDLETDH [P2I]	-0.196
PPVKRRLDLETDM [H13M]	0.414
PPVKRTLDLETDH [R6T]	0.821
PPVKRRLDLPTDH [E10P]	0.192
PPVKRRLDLETDE [H13E]	0.239
PPPKRRLDLETDH [V3P]	0.822
PPVKRRLDLETNH [D12N]	0.124
PPVKRRLDLETAH [D12A]	0.638

Block 2 — method: protein-binding microarray; molecule type: double-stranded DNA, one strand shown; medium: in vitro; concentration: 250 nM; setting: 60-bp whole probe; added: salmon DNA 0.4 mg/ml; reference: random background probes; direction: higher = stronger binding; constant ends, left off below: GCCTAGCAC … GTCTTGATTCGCTTGACGCTGCTG
Target: Interferon regulatory factor 7, full length, phosphomimetic (IRF7, Homo sapiens, UniProt Q92985, residues 1-503, S101K/S471D/S472D/S475D/S476D/S477D/S483D/S484D/S487D)
Sequence of UniProt Q92985 (whole entry, unmodified, looked up): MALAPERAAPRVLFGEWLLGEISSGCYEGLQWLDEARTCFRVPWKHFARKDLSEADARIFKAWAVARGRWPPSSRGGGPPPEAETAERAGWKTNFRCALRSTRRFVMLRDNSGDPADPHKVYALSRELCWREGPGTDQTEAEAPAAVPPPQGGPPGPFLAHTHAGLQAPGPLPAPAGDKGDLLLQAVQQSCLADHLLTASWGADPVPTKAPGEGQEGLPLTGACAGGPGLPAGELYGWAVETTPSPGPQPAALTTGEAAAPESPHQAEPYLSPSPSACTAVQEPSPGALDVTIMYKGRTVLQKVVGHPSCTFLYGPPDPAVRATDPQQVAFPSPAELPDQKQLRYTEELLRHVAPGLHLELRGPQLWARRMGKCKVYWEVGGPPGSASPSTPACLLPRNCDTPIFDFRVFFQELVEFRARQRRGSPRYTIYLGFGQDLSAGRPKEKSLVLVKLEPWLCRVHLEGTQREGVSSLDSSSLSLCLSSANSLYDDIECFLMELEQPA
Sequence	log fluorescence [z-score]
GACGGACTGGGACTGGGGCCGTGCTAG	-0.461
GACGTTTTCGGACTGGGGACGTGCTAG	1.05
TTAGGTTTCGAGACTGGGTTAGTGCTA	4.6
GATGAATAAAGCGTTGCTGCGTGCTAG	-0.358
GAGGGGGCAGGGACTCAGGGGTGCTAG	1.5
TTAGGTTTGGGGACTGGGTTAGTGCTA	0.00321
TTAGTTCTCAGTTTCGATTAGTGCTAG	8.76
TTAGATATCAGATTGGATTAGTGCTAG	-0.149
TTAGGACTGGACTTTCGTTTAGTGCTA	0.995
TCAGTATTTTTTCTGAAACTGTGCTAG	0.632
TCCTATATCTGAACCGCAGAGTGCTAG	0.564
TTAGGCCTGCTACTGCTTTAGTGCTAG	-0.619
GTCGAACTGAGTATCGAGACGTGCTAG	0.395
TCTTATATACCTGTATATCTGTGCTAG	0.451
TCAACTCTCTTGTCTGGAACTGTGCTA	0.195
TCATCTCCCCCATCTTGTACTGTGCTA	0.0343
ATAGGTTTCGACACTGGGTTAGTGCTA	3.31
CACTCTGTCCCTCTGTGACAGTGCTAG	0.385

Block 3 — method: protein-binding microarray; molecule type: double-stranded DNA, one strand shown; medium: in vitro; concentration: 0.8 µM; setting: whole 60-bp probe, no competitor; direction: higher = stronger binding
Target: Centromere-binding protein 1, full length, N-terminal tag (CBF1, Saccharomyces cerevisiae, UniProt P17106, residues 1-351)
Sequence of UniProt P17106 (whole entry, looked up): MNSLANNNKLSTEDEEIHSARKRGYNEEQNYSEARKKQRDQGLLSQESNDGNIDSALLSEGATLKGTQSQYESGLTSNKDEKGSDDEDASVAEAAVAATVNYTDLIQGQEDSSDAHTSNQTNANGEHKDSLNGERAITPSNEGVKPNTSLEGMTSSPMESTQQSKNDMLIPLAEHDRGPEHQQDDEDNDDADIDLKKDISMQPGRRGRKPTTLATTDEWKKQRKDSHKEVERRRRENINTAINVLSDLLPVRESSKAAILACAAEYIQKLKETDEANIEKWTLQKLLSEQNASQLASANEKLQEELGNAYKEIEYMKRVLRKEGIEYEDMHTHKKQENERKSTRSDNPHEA
Sequence	fluorescence intensity [a.u.]
TGTACGAAGCTATATCGTGTGATTATAGTAGTTAGGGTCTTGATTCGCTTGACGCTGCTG	586
CTAAGTATAGTTATACATGTGGATGTGTATGGATTCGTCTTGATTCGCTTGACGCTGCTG	576
CTAGGTGATATTTCGCTCGTGGAAAAGCTAATGTTCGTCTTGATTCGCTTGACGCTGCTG	582
CCTAACTACTATATTAATGTGCAATAGCTTCGTACAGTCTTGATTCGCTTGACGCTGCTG	498
GAATACTGTCCCTCCCCCGTGCACAGCATGTTGTAGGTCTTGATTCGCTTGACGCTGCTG	633
CTATCAGTAGTTTGTCACCTTAGTTGGAGATAGTTCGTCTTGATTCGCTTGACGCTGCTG	529
GAACTTGAAATGGTGATCATGACCTTTTGAACATAGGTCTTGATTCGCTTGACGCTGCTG	644
CTAAGAACTTTTCCTGATGCTTGTATCAGAACCTTCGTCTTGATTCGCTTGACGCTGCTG	503
CTACTACGATACATGCACGCCGCTCATCTATATTTCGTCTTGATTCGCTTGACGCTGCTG	506
CTACTAGTATATTATCACATGATATTTCTCAAATTCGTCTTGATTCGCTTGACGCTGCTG	3030
CTAACCAATAGAGTGCACGTTTCTTGATGCTATTTCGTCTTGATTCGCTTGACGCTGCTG	668
CTAAAATAAAGGGAACACACGTGAAAGTGAAGGTTCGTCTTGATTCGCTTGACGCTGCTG	1770
GAACCGATGACATGCTGTGTGACGGTCTTGCATTAGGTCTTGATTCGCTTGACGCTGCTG	540
CTATCCTTTTCACTTCACGTTCGCAGGGCTTTCTTCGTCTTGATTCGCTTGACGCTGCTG	614
CTATAGGAAATATGACATGTGGGCTATCTGTTTTTCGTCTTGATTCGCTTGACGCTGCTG	600
CTAATTCATTTTTTCCACGAGCCTCATCACACGTTCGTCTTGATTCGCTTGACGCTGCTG	577
TGTACGAAGCTATGTCATGTTGCTATAGTAGTTAGGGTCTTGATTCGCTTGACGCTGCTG	563
CTATACATATACATACACGCAATGAGAACCCTATTCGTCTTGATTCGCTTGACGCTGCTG	542
CTATGTTGTATTGCTGCTGATGTTTTAGGCACTTTCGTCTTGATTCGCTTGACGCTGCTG	578
CTAATTCAAAATAGGAAGGTGACAATGAAACCATTCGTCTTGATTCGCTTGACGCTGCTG	535
GAACATATTCTGATCCAACTGATGCATCAGTTATAGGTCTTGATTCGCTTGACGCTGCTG	525
TGTACGAAGCTATATGTCACCATTATAGTAGTTAGGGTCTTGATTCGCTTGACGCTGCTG	542
GAACGGCAATATAGTCAGATGAGTCACTACGAGTAGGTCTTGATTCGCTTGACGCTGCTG	598
CTACTCTATTGTTAACACGAGGGAAAAGATGGATTCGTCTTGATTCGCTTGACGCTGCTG	714
GAAAATCGTGGAGATCATGTGTGCCAGAAAAGGTAGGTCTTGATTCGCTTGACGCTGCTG	1450

Block 4 — method: universal PBM; molecule type: double-stranded DNA, one strand shown; medium: in vitro; concentration: not given; direction: higher = stronger binding
Target: Sal-like protein 4, full length isoform B (SALL4, Homo sapiens, UniProt Q9UJQ4-2, residues 1-616)
Setting: 8-mer, flanks averaged, mean of replicates
Sequence	E-score
GAGATACA	0.256
TGCTACAA	0.189
AGAAAGAC	-0.0708
ACTGCCCC	-0.157
ACTGTGGA	-0.0267
CCCAACGC	-0.162
TAAGCTGA	0.0571
CGCAATGA	0.0676
GCAAGTGA	-0.0466
ATTAAGGC	0.172
AGACCACG	-0.269
TTAGCCAA	-0.00967
GCCAAGCA	-0.14
CAATGGTG	-0.134
AGGTAAGA	-0.0266
ATCTCATC	0.0591
ACAAAGAA	0.23
ACCGTAGT	-0.227
GGTAACCA	-0.131
CAGTGCGA	-0.106
CCAGATTA	0.192
AAATCCCG	-0.0246
GGCGTAAC	-0.0841
CGCGCGCG	-0.369
GTGACGGA	-0.121

Block 5 — method: DHFR PCA, deep sequencing; medium: yeast; added: (+)-ABA 0.39 µM; reference: wild-type fitted maximum; direction: higher = stronger binding
Target: ABI1, truncated, D143A, DHFR fusion (Arabidopsis thaliana)
Setting: methotrexate growth selection, single substitutions
Starting sequence: PYL1, truncated, DHFR fusion (Arabidopsis thaliana); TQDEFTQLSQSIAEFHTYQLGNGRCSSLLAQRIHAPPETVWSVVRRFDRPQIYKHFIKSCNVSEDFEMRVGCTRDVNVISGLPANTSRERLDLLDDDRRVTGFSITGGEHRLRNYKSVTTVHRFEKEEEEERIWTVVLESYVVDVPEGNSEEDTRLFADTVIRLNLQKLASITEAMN
Substitution	relative binding score
L166F	-6.71%
S9R	60.6%
D159F	-20.5%
T6H	60.3%
I172M	1.6%
H55S	56.9%
E14D	25.4%
V40I	-9.17%
R46M	12.9%
T17P	-4.49%
V136G	-3.85%
S150G	6.49%
E174L	-13.6%
V143P	-12.5%
P50S	-10.7%
R24P	-1.61%
R113P	63.3%
E128Y	28.3%
Q10S	56.5%
R32C	29.5%
R155T	18.6%
A175F	-0.117%

Excerpt of the above (block 3):
Sequence	fluorescence intensity [a.u.]
CCTAACTACTATATTAATGTGCAATAGCTTCGTACAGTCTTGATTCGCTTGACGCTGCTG	498
GAATACTGTCCCTCCCCCGTGCACAGCATGTTGTAGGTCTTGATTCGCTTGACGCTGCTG	633
CTATCAGTAGTTTGTCACCTTAGTTGGAGATAGTTCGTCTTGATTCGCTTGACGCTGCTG	529
GAACTTGAAATGGTGATCATGACCTTTTGAACATAGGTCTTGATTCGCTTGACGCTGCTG	644
CTAAGAACTTTTCCTGATGCTTGTATCAGAACCTTCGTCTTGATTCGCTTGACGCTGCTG	503
CTACTACGATACATGCACGCCGCTCATCTATATTTCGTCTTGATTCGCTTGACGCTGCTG	506
CTACTAGTATATTATCACATGATATTTCTCAAATTCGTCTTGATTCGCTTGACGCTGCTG	3030
CTAACCAATAGAGTGCACGTTTCTTGATGCTATTTCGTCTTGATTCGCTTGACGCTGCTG	668
CTAAAATAAAGGGAACACACGTGAAAGTGAAGGTTCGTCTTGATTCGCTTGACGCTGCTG	1770
GAACCGATGACATGCTGTGTGACGGTCTTGCATTAGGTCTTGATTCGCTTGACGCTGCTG	540
CTATCCTTTTCACTTCACGTTCGCAGGGCTTTCTTCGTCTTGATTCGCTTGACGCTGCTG	614
CTATAGGAAATATGACATGTGGGCTATCTGTTTTTCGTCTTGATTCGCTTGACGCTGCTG	600
CTAATTCATTTTTTCCACGAGCCTCATCACACGTTCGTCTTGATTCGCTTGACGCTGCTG	577
TGTACGAAGCTATGTCATGTTGCTATAGTAGTTAGGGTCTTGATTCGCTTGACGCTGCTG	563
CTATACATATACATACACGCAATGAGAACCCTATTCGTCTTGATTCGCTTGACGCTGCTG	542
CTATGTTGTATTGCTGCTGATGTTTTAGGCACTTTCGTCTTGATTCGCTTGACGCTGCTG	578
CTAATTCAAAATAGGAAGGTGACAATGAAACCATTCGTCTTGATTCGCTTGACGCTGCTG	535
GAACATATTCTGATCCAACTGATGCATCAGTTATAGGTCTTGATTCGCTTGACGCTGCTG	525
TGTACGAAGCTATATGTCACCATTATAGTAGTTAGGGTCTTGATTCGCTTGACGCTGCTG	542
GAACGGCAATATAGTCAGATGAGTCACTACGAGTAGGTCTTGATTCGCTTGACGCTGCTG	598
